Published values collected from several papers.
Protocols differ between the studies behind these lines.

CCC(=O)N1CCC=C(c2cc3c(Nc4cc5ncsc5cc4F)ncnc3s2)C1 — Cmax (mouse, plasma; oral, 10 mg/kg): 3590 ng/mL
CC(=O)c1c(C)c2cnc(Nc3ccc(N4CCNCC4)cn3)nc2n(C2CCCC2)c1=O — Cmax (mouse, serum; intraperitoneal, 25 mg/kg, single dose): 49000 ng/mL
CCC(=O)NC1CC=C(c2cc3c(Nc4cc5ncsc5cc4F)ncnc3s2)CC1 (racemic) — Cmax (mouse, plasma; intravenous, 10 mg/kg): 4330 ng/mL
Cc1cc(NCC(=O)C(C)(C)C)c2nc(N3CCOC[C@H]3C)cc(=O)n2c1 — Cmax (C57BL/6 mouse, plasma; intraperitoneal, 10 mg/kg, single dose): 2260 ng/mL
COC1C(c2ccc(Cl)c(Cc3ccc(OC4CCOC4)cc3)c2)OC(CO)C(O)C1O (stereo not drawn) — Cmax (CD-1 mouse, plasma; intravenous, 5 mg/kg): 6670 ng/mL
O=C1CCC(N2C(=O)c3ccc(N4CCC(C(=O)N5CCC(CCN6CCC(CNC(=O)c7cccc(-c8noc(C(F)(F)F)n8)c7)(c7nc(-c8ccccc8)cs7)CC6)CC5)CC4)cc3C2=O)C(=O)N1 (stereo not drawn) — Cmax (CD-1 mouse, plasma; intraperitoneal, 30 mg/kg): 2600 ng/mL
C/C(N)=N/C(=N\S(=O)(=O)c1ccc(C(F)(F)F)cc1)N1C[C@H](c2ccccc2)C(c2ccc(Cl)cc2)=N1 — Cmax (C57BL/6 mouse, muscle; intravenous, 10 mg/kg): 3760 ng/mL
CC[C@H](C)/C=C/C=C/C=C/C(O)=C/C(=O)C(F)(F)F — Cmax (female C57BL/6 mouse, plasma; oral, 25 mg/kg): 27.9 µM
CN[C@H](CC(C)C)C(=O)N[C@H]1C(=O)N[C@@H](CC(N)=O)C(=O)N[C@H]2C(=O)N[C@H]3C(=O)N[C@H](C(=O)N[C@H](C(=O)N[C@H](CCCNC(=N)N)C(N)=O)c4cc(O)cc(O)c4-c4cc3ccc4O)[C@H](O)c3ccc(c(Cl)c3)Oc3cc2cc(c3O[C@@H]2O[C@H](CO)[C@@H](O)[C@H](O)[C@H]2O[C@H]2C[C@](C)(N)[C@H](O)[C@H](C)O2)Oc2ccc(cc2Cl)[C@H]1O — Cmax (female CD-1 mouse, plasma; intravenous, 10 mg/kg, single dose): 23400 ng/mL
O=S(=O)(N[C@H]1CCO[C@@H](C2c3ccc(F)cc3CCc3cc(F)ccc32)C1)c1ccc(OC(F)(F)F)cc1 — Cmax (mouse, plasma; oral, 30 mg/kg): 1970 ng/mL
COC(=O)C1=CNC=C(C(=O)OC)C1c1ccc(F)c(C(F)(F)F)c1 — Cmax (male C57BL/6 mouse, plasma; intravenous, 2 mg/kg): 2910 ng/mL
Fc1cccc(-n2cc(-c3ccccc3)nc2NCc2ccc(C(F)(F)F)c(F)c2)c1 — Cmax (male CD-1 mouse, plasma; intraperitoneal, 25 mg/kg, single dose): 4960 ng/mL
CC(=O)N1CCC=C(c2cc3c(Nc4cc5ncsc5cc4F)ncnc3s2)C1 — Cmax (mouse, plasma; oral, 10 mg/kg): 2460 ng/mL
Cn1ccc(-c2cc(Cl)c(Cl)c3[nH]c4c(c23)CN(C(=O)CO)CC4)n1 — Cmax (C57BL/6 mouse, blood; oral, 20 mg/kg): 19.6 µM
CC(C)NC(=O)NC1CC=C(c2cc3c(Nc4cc5ncsc5cc4F)ncnc3s2)CC1 (racemic) — Cmax (mouse, plasma; oral, 10 mg/kg): 1330 ng/mL
Cc1ncsc1-c1ccc(CNC(=O)[C@@H]2C[C@@H](O)CN2C(=O)[C@@H](NC(=O)COCC(C)(COCCOCCOCCNC(=O)C[C@@H]2N=C(c3ccc(Cl)cc3)c3c(sc(C)c3C)-n3c(C)nnc32)COCCOCCOCCNC(=O)C[C@@H]2N=C(c3ccc(Cl)cc3)c3c(sc(C)c3C)-n3c(C)nnc32)C(C)(C)C)cc1 — Cmax (male C57BL/6 mouse, plasma; subcutaneous, 5 mg/kg, single dose): 3830 ng/mL
Fc1cncc(-c2ccc3[nH]c4ncnc(N[C@H]5CC[C@H](N6CCOCC6)CC5)c4c3c2)c1 — Cmax (CD-1 mouse, plasma; oral, 10 mg/kg): 3330 ng/mL
Oc1ccc([C@@H]2Oc3ccc(O)cc3[C@@H]3CCC[C@@H]32)cc1 — Cmax (male C57BL/6 mouse, plasma; intravenous, 1 mg/kg): 4 µM
COc1ccccc1/C=C/CNCC(O)COc1ccc(Nc2ccccc2)cc1 (racemic) — Cmax (mouse, plasma; intraperitoneal, 10 mg/kg): 314 ng/mL
O=C(C1CC1)N1CCC=C(c2cc3c(Nc4cc5ncsc5cc4F)ncnc3s2)C1 — Cmax (mouse, plasma; oral, 10 mg/kg): 1870 ng/mL
COc1cnc2cccc(N3CCc4c(cc(Cn5ccnc5)cc4-c4cn(C)nc4C(F)(F)F)C3=O)c2c1 — Cmax (male CD-1 mouse, plasma; intraperitoneal, 100 mg/kg): 30200 ng/mL
O=C(NCCCCc1ccccc1)n1c(=O)oc2cc(-c3ccc(F)cc3)ccc21 — Cmax (CD-1 mouse, plasma; intravenous, 1 mg/kg): 628 ng/mL
Cc1cc(C(=O)N[C@@H](CC(=O)NC(C)(C)C)C(=O)NCCNC(=O)c2cccc(-n3cccn3)c2)no1 — Cmax (mouse, plasma; oral, 1 mg/kg): 3.4 ng/mL
Cn1c2cc([S+](C)[O-])sc2c2cnn(Cc3cccc(N)c3)c(=O)c21 (stereo not drawn) — Cmax (male BALB/c mouse, plasma; intraperitoneal, 10 mg/kg, single dose): 10900 ng/mL
O=C(O)c1ccc(/C=C2\SC(=S)N(Cc3cccc(C(F)(F)F)c3)C2=O)cc1 — Cmax (C57BL/6 mouse, blood; oral, 10 mg/kg): 3250 ng/mL
Cc1cc(NC(=O)[C@H](O)c2cc(F)cc(F)c2)ccc1-c1cnc(N)c(C(=O)NC(C)C)c1 — Cmax (female nude mouse, plasma; oral, 3 mg/kg, single dose): 373 ng/mL
O=C(OC(C(F)(F)F)C(F)(F)F)N1CCC(CNS(=O)(=O)c2ccc(Cl)cc2)CC1 — Cmax (male SCID mouse, brain; oral, 10 mg/kg): 2330 ng/mL

Some of these lines once more:
Cc1cc(NC(=O)[C@H](O)c2cc(F)cc(F)c2)ccc1-c1cnc(N)c(C(=O)NC(C)C)c1 — Cmax (female nude mouse, plasma; oral, 3 mg/kg, single dose): 373 ng/mL
Cn1c2cc([S+](C)[O-])sc2c2cnn(Cc3cccc(N)c3)c(=O)c21 (stereo not drawn) — Cmax (male BALB/c mouse, plasma; intraperitoneal, 10 mg/kg, single dose): 10900 ng/mL
COc1cnc2cccc(N3CCc4c(cc(Cn5ccnc5)cc4-c4cn(C)nc4C(F)(F)F)C3=O)c2c1 — Cmax (male CD-1 mouse, plasma; intraperitoneal, 100 mg/kg): 30200 ng/mL
